Experimental data pooled from the literature.
Protocols differ between the studies behind these lines. Numbers after ± are the reported error.
ABCB1: ATP-dependent translocase ABCB1 (ABCB1, Homo sapiens, UniProt P08183)
Chain of UniProt P08183 (whole entry, looked up): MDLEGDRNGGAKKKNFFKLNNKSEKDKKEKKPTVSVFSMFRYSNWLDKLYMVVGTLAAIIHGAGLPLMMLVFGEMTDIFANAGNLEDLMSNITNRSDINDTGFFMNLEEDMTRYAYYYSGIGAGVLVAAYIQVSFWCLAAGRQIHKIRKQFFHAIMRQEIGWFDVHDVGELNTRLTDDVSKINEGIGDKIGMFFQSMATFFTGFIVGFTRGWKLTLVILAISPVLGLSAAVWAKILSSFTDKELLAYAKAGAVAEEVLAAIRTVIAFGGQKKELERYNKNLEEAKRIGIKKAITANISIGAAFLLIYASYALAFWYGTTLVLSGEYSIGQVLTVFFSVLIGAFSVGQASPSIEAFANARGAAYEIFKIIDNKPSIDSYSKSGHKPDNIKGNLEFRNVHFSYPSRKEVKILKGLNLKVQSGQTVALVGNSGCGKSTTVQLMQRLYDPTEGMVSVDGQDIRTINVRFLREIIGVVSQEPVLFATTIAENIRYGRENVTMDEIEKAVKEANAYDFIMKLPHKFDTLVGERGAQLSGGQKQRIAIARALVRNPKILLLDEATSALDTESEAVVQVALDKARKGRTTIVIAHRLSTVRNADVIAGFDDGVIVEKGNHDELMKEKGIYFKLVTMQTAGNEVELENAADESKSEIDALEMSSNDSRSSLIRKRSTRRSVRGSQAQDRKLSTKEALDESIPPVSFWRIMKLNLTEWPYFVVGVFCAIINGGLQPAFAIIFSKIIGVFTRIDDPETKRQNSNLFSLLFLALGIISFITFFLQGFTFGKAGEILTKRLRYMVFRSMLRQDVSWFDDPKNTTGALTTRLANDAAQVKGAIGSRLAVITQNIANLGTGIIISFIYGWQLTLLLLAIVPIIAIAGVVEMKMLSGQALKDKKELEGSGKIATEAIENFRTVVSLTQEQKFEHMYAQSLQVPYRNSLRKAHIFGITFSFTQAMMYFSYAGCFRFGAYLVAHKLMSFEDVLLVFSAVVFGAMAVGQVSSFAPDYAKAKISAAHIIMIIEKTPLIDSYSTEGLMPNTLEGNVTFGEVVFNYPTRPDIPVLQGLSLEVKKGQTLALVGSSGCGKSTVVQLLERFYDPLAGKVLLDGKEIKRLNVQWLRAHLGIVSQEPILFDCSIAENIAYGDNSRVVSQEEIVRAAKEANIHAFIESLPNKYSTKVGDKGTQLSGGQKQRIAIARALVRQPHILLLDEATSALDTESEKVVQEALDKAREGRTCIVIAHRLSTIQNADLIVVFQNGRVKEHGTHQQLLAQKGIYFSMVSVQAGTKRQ

C[C@]12CC[C@@H]3c4ccc(O)cc4CC[C@H]3[C@@H]1C[C@@H](O)[C@@H]2O
minimum serum concentration (GC-MS; breast cancer women on NSAI, serum; vaginal, 0.03 mg, 2 h, day 0): 0 ng/mL

Telavancin
cellular concentration (J774 mouse macrophages; 90 mg/L, 24 h): 4 mg/mL

c1ccc(N(c2ccccc2)c2ccc(-c3ccc(N(c4ccccc4)c4ccc(-c5ccc(N(c6ccccc6)c6ccc(-c7ccc(N(c8ccccc8)c8ccccc8)cc7)cc6)cc5)cc4)cc3)cc2)cc1
concentration in mucosal solution (Cyprinus carpio; everted gut sac; intestine; concentration not given, 24 h, 23 °C): 97.7 ± 1.5 µg/mL

O=C(c1ccccc1)N1CCN(c2cc(-c3ccccc3)nc3cc(-c4ccc(F)cc4)nn23)CC1
IC50 (ABCB1; JC-1 efflux, inhibitor; Jurkat-DNR): 3.99 ± 2.31 µM

CCc1ccc(C(=O)Nc2cc3nc(C4CCCCC4)[nH]c3cc2N(CC)CC)cc1
IC50 (Vero; cytotoxicity, Alamar Blue; 3 days, 37 °C): > 100 µg/mL

CC(C)(C)c1cc(CCC(=O)OCC(COC(=O)CCc2cc(C(C)(C)C)c(O)c(C(C)(C)C)c2)(COC(=O)CCc2cc(C(C)(C)C)c(O)c(C(C)(C)C)c2)COC(=O)CCc2cc(C(C)(C)C)c(O)c(C(C)(C)C)c2)cc(C(C)(C)C)c1O
concentration in mucosal solution (Cyprinus carpio; everted gut sac; intestine; concentration not given, 24 h, 23 °C): 75.7 ± 5.1 µg/mL

COc1cccc(C(=O)N2CCN(c3cc(-c4ccccc4)nc4cc(-c5cccc(Cl)c5)nn34)CC2)c1
IC50 (ABCB1; JC-1 efflux, inhibitor; Jurkat-DNR): 2.64 ± 0.64 µM

CC(C)(C)c1cc(C(C)(C)C)c(NC(=O)c2c[nH]c3ccccc3c2=O)cc1O
intracellular accumulation (Calu-3; concentration not given, 4 h, basal to apical transport): 18 to 34%

O=C(c1cccnc1)N1CCN(c2cc(-c3ccccc3)nc3cc(-c4cccc(Cl)c4)nn23)CC1
IC50 (ABCB1; JC-1 efflux, inhibitor; Jurkat-DNR): 0.57 ± 0.08 µM

c1ccc2c(c1)ccc1ccccc12
concentration in mucosal solution (Cyprinus carpio; everted gut sac; intestine; concentration not given, 24 h, 23 °C): 122 ± 5.8 µg/mL

CN(C)c1cc2[nH]c(C3CCCCC3)nc2cc1NC(=O)c1ccc(F)cc1
IC50 (Vero; cytotoxicity, Alamar Blue; 3 days, 37 °C): > 100 µg/mL

O=C(Cc1ccccc1)N1CCN(c2cc(-c3ccccc3)nc3cc(-c4cccc(Cl)c4)nn23)CC1
IC50 (ABCB1; JC-1 efflux, inhibitor; Jurkat-DNR): 4.68 ± 2.69 µM

CN(C)c1cc2[nH]c(C3CCCCC3)nc2cc1NC(=O)OCc1ccccc1
IC50 (Vero; cytotoxicity, Alamar Blue; 3 days, 37 °C): > 100 µg/mL

CCCC[C@H](NC(C)=O)C(=O)N[C@H]1CCC(=O)NC[C@@H](C(=O)N[C@@H](Cc2c[nH]c3ccccc23)C(N)=O)NC(=O)[C@H](CCCNC(=N)N)NC(=O)[C@@H](Cc2ccccc2)NC(=O)[C@H](Cc2c[nH]cn2)NC1=O
AUC(0-last) (beagle dog, female, plasma; subcutaneous, 40.0 mg/kg daily, day 14): 6220 ng·h/mL

O=C(Nc1cc2nc(C3CCCCC3)[nH]c2cc1N1CCCC1)c1ccccc1
IC50 (Vero; cytotoxicity, Alamar Blue; 3 days, 37 °C): > 100 µg/mL

COc1ccccc1-c1cc(N2CCN(C(=O)c3ccoc3)CC2)n2nc(-c3ccccc3)cc2n1
IC50 (ABCB1; JC-1 efflux, inhibitor; Jurkat-DNR): 4.52 µM

CCCCOC(=O)Nc1cc2nc(C3CCCCC3)[nH]c2cc1N(CCC)CCC
IC50 (Vero; cytotoxicity, Alamar Blue; 3 days, 37 °C): > 100 µg/mL

C#C[C@]1(COP(=O)(O)OP(=O)(O)OP(=O)(O)O)O[C@@H](n2cnc3c(N)nc(F)nc32)C[C@@H]1O
half-life (human PBMC tumour model; host not given, plasma; oral, 200 mg, single dose, fasted): 160 h

O=C(NCc1ccccc1)Nc1cc2nc(C3CCCCC3)[nH]c2cc1N1CCCC1
IC50 (Vero; cytotoxicity, Alamar Blue; 3 days, 37 °C): > 100 µg/mL

CCN(CC)CCNC(=O)c1c(C)[nH]c(/C=C2\C(=O)Nc3ccc(F)cc32)c1C
maximum trough plasma concentration (human, plasma; oral, 20 mg/m2, day 21): 62.9 ng/mL

CC(C)(C)c1cc(N2CCN(C(=O)c3ccoc3)CC2)n2nc(-c3ccccc3)cc2n1
IC50 (ABCB1; JC-1 efflux, inhibitor; Jurkat-DNR): 5.62 µM

CCN(CC)c1cc2[nH]c(C3CCCCC3)nc2cc1NC(=O)c1ccc(F)cc1
IC50 (Vero; cytotoxicity, Alamar Blue; 3 days, 37 °C): > 100 µg/mL

Excerpt of the above:
Telavancin
cellular concentration (J774 mouse macrophages; 90 mg/L, 24 h): 4 mg/mL
